Assay results gathered from unrelated publications.
“And” joins repeats or separate records; there may be more than shown. ± marks the error that the study gave.

CCn1cc(-c2cc(Cn3ccoc3=N)cc3c2CCN([C@@H](C)c2cc(OC)ccn2)C3=O)c(C(F)(F)F)n1
EC50 (TE-5; cell growth, inhibitor; 120 h): 4.25 µM

Cn1cc(-c2ccc(-c3cncc(Cl)c3N3CCC4(CCNC4=O)CC3)cc2)cn1
log2 fold change (COLO 205; gene expression, microarray, item: CYR61 mRNA; concentration not given, 2 h; relative to: untreated cells): 2.04

Cn1cc(Nc2nccc(-c3ccc4c(c3)CN(C3COC3)CC[C@H]4NC(=O)c3cn(C(C)(C)C)nn3)n2)cn1
number of unchanged genes (human B cells; 100 nM, 64 h, stimulation-upregulated genes, with: anti-IgM): 1

Cc1ccc(C(=O)c2cc(O)c(O)c([N+](=O)[O-])c2)cc1
IC50 (HD-MB03; cell growth; 168 h, single agent): 0.745 µM

O=C(O)COCC(=O)O
IC50 (hepatocytes, iPSC-derived, W2 line; cell viability, RealTime-Glo MT; 24 h, differentiation day 23): 8870 µM

Cc1cccc(-c2nn3c(c2-c2ccnc4ccc(C(N)=O)cc24)CCC3)n1
IC50 (HD-MB03; 168 h): inactive

CC(=O)c1nn(-c2ccc(Cl)cc2)/c(=N/N=C(\C)c2ccc(NC(=O)c3ccc(C)cc3)cc2)s1
toxicity (MCF7; 0.312 µM): 40.2%

O=C(/C=C/C=C/C=C/C1CCCCC1)NC1=C[C@@](O)(/C=C/C=C/C=C/C(=O)NC2=C(O)CCC2=O)[C@@H]2O[C@@H]2C1=O
GI50 (hs852t; cell growth, inhibitor, CellTiter-Glo luminescence; 78 h; relative to: day 0 cell count): 17.2 µM

Cc1[nH]c2ccccc2c1CCNCc1ccc(/C=C/C(=O)NO)cc1
IC50 (HD-MB03; cell growth; 168 h, single agent): 0.00947 µM

CCn1cc(-c2cc(Cn3ccnc3)cc3c2CCN([C@H](c2cc(OC)ccn2)C2CC2)C3=O)c(C(F)(F)F)n1
EC50 (KMS-26; cell growth, inhibitor; 120 h): 10.3 µM

Cc1cc(N2CCc3c(c(C)nn3CC34CCC(NC(=O)[C@@H]5COCCN5)(CC3)CC4)C2)c2cnn(C)c2n1
inhibition (human PBMC; qRT-PCR, item: IRF7 mRNA; 100 nM, with: ssRNA): 88 ± 2%

CC/C(=N\NC(=O)NCc1cccc(O)c1)c1ccc(O)c(C)c1O
protein level (SK-OV-3; Western blot, item: YAP; 10 µM, 1 h, 2D culture, unit not given; relative to: β-actin): 1.62 ± 0.63

Cc1nn(-c2nc3c(F)cc(F)cc3s2)c(O)c1C(c1ccc(C(F)(F)F)cc1)c1c(C)nn(-c2nc3c(F)cc(F)cc3s2)c1O
phospho-TBK1 to TBK1 ratio (THP1-Dual; western blot; 20 µM, with: cGAMP; relative to: DMSO): 0.684 and 0.806 and 0.856

COc1ccc(NC(=S)N/N=C/c2cccc3cc4ccccc4nc23)cc1
necrotic cells (HeLa; annexin V/PI flow cytometry; IC50, 48 h, annexin V-negative PI-positive): 8.23%

C=Cc1c2[n-]c(c1C)/C=c1\[n-]/c(c(C)c1C=C)=C\c1[n-]c(c(CCC(=O)O)c1C)/C=c1\[n-]c(c(C)c1CCC(=O)O)=C2.[Sn+4]
fold change (SH-SY5Y; RNA-seq, item: GREM1 mRNA; 5 µM, 5 h; relative to: untreated cells): 2.42

CN(C/C=C/C#CC(C)(C)C)Cc1cccc2ccccc12
reversal of trafficking deficit (primary rat hippocampal/cortical neuron-glia cultures; 1 µM, with: 1 µM α-synuclein oligomers): 24.2%

Cc1cccc(-c2[nH]c(CNc3ccccc3F)nc2-c2ccc3ncnn3c2)n1
viability (MM1.S; XTT; 2 µM; relative to: untreated): 17%

COc1cc2ncnc(Nc3ccc(Oc4ccccc4)cc3C)c2cc1OC
viability (A-375; 1 µM, 72 h): 96.2%

CC1(C)OCCn2c1nc1c(N3CCOCC3)nc(-c3cnc(N)nc3)nc12
IC50 (HD-MB03; cell growth; 168 h, single agent): 0.513 µM

Cc1cnc(NC2CCOCC2)nc1-n1cnc(C(=O)NC(CN)c2cc(F)cc(Cl)c2)c1 (centres unmarked)
G1 phase cells (A-375; flow cytometry; 1 µM, 72 h): 97.4%

Repeated from above:
CC1(C)OCCn2c1nc1c(N3CCOCC3)nc(-c3cnc(N)nc3)nc12
IC50 (HD-MB03; cell growth; 168 h, single agent): 0.513 µM

Cc1cnc(NC2CCOCC2)nc1-n1cnc(C(=O)NC(CN)c2cc(F)cc(Cl)c2)c1 (centres unmarked)
G1 phase cells (A-375; flow cytometry; 1 µM, 72 h): 97.4%
